Measurements of several laboratories.
Each line is one published result; not all experiments were run side by side. “And” joins repeats or separate records; there may be more than shown. Numbers after ± are the reported error.
rep main protease: Replicase polyprotein 1ab, main protease (rep, Severe acute respiratory syndrome coronavirus 2, UniProt P0DTD1)
Spike glycoprotein: Spike glycoprotein (Severe acute respiratory syndrome coronavirus 2, UniProt P0DTC2)
Sequence of UniProt P9WHT9 (whole entry, looked up): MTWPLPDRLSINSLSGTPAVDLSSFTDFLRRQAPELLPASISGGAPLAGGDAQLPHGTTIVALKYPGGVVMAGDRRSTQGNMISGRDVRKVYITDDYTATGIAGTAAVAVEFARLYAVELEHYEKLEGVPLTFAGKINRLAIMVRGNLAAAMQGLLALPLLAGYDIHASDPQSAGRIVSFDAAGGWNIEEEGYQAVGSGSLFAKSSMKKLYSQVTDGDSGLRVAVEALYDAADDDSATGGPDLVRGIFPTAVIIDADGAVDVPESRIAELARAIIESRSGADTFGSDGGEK
Sequence of UniProt P78348 (whole entry, looked up): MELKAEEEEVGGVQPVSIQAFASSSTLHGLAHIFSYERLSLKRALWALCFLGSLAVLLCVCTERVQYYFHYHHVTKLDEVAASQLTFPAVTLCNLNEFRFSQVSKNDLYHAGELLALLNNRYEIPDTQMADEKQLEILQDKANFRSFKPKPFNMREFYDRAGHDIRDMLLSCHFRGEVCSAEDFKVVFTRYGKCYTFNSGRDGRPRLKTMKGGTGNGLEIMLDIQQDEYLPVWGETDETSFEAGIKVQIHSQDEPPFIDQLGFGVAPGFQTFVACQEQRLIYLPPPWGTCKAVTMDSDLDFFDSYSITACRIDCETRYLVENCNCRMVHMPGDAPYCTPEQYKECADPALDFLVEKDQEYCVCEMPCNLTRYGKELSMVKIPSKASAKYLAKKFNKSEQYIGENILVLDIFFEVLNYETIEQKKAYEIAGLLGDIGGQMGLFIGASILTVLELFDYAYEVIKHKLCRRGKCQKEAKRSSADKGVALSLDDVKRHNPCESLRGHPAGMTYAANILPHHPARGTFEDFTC

SMILES | tested on | assay | test system | conditions | how to read | endpoint | result
O=C(N[C@@H]1Cc2ccccc2[C@H]1NC(=O)c1cc(O)ccc1[N+](=O)[O-])c1ccc2[nH]nnc2n1 | rep main protease | enzyme activity, inhibitor |  | 5 µM, mean of runs |  | inhibition | 10.3%
CC[C@H](C)[C@H](NC(=O)[C@H](CC(C)C)NC(=O)[C@H](Cc1c[nH]c2ccccc12)NC(=O)[C@H](CCC(N)=O)NC(=O)[C@@H](NC(=O)[C@H](Cc1ccccc1)NC(=O)[C@H](C)NC(=O)[C@H](CCCCNC(=O)COCCOCCNC(=O)COCCOCCNC(=O)CC[C@H](NC(=O)CCCCCCCCCCCCCCCCCCC(=O)O)C(=O)O)NC(=O)[C@H](CCC(N)=O)NC(=O)[C@H](C)NC(=O)[C@@H](NC(=O)[C@H](CCCCN)NC(=O)[C@H](CC(=O)O)NC(=O)[C@H](CC(C)C)NC(=O)C(C)(C)NC(=O)[C@@H](NC(=O)[C@H](CO)NC(=O)[C@H](Cc1ccc(O)cc1)NC(=O)[C@H](CC(=O)O)NC(=O)[C@H](CO)NC(=O)[C@@H](NC(=O)[C@H](Cc1ccccc1)NC(=O)[C@@H](NC(=O)CNC(=O)[C@H](CCC(=O)O)NC(=O)C(C)(C)NC(=O)[C@@H](N)Cc1ccc(O)cc1)[C@@H](C)O)[C@@H](C)O)[C@@H](C)CC)[C@@H](C)CC)C(C)C)C(=O)N[C@@H](C)C(=O)NCC(=O)NCC(=O)N1CCC[C@H]1C(=O)N[C@@H](CO)C(=O)N[C@@H](CO)C(=O)NCC(=O)N[C@@H](C)C(=O)N1CCC[C@H]1C(=O)N1CCC[C@H]1C(=O)N1CCC[C@H]1C(=O)N[C@@H](CO)C(N)=O |  |  | healthy subjects | all MAD doses |  | subjects with injection site reaction | 28.6%
CC(C)(C)NCc1ccc(Nc2ccnc3cc(Cl)ccc23)cc1O | SARS-CoV-2 | cytopathic effect, cell-based CPE | USA_WA1/2020 | round 2, 5-point dilution |  | AC50 | 3.16 µM
Cn1cnc(Cn2c(=O)[nH]/c(=N\c3cc4cn(C)nc4cc3Cl)n(Cc3cc(F)c(F)cc3F)c2=O)n1 |  |  | human, mild renal impairment | oral, 375 mg, treatment-related dry mouth, Moderate severity |  | patients with adverse event | 0%
O=C(NC[C@H]1CN(c2ccc(N3CCOCC3=O)cc2)C(=O)O1)c1ccc(Cl)s1 | rep main protease | reporter gene (Gaussia luciferase), inhibitor |  | 20 µM |  | inhibition | -0.00463%
Cc1oc(-c2cccc(Cl)c2)nc1CN1CCCC(C(=O)NCCc2ccc(Cl)cc2)C1 (stereo not shown) | SARS-CoV-2 | cytopathic effect, cell-based CPE | USA_WA1/2020 |  |  | AC50 | 25.1 µM
O=C(NC[C@@H]1CC2(CCOCC2)CN1C(=O)c1ccc2c(c1)C(=O)NC2)c1cccnn1 | rep main protease | enzyme activity, inhibitor |  | 5 µM, mean of runs |  | inhibition | 10.1%
CC[C@H](C)[C@H](NC(=O)[C@@H]1CCCN1C(=O)[C@H](C)NC(=O)[C@@H]1CSSC[C@@H]2NC(=O)[C@H](CC(=O)O)NC(=O)[C@H](CCCNC(=N)N)NC(=O)[C@H](CCC(=O)O)NC(=O)[C@H](CCCNC(=N)N)NC(=O)CNC(=O)[C@H](CC(=O)O)NC(=O)[C@@H]3CSSC[C@H](NC(=O)[C@H](CCC(=O)O)NC(=O)[C@H](CC(C)C)NC(=O)CNC(=O)[C@H](C)NC(=O)[C@H](CSSC[C@H](NC(=O)[C@H](Cc4ccccc4)NC(=O)[C@@H](N)CO)C(=O)N[C@@H](CC(C)C)C(=O)N[C@@H](C(C)C)C(=O)N[C@@H](CCCCN)C(=O)N[C@@H](Cc4c[nH]c5ccccc45)C(=O)N[C@@H](CCCCN)C(=O)N[C@@H](CCC(N)=O)C(=O)N3)NC2=O)C(=O)N[C@@H](Cc2c[nH]c3ccccc23)C(=O)N[C@@H](CCCCN)C(=O)N[C@@H](CCCNC(=N)N)C(=O)N[C@@H](CO)C(=O)NCC(=O)N[C@@H](CC(N)=O)C(=O)N[C@@H](CCCCN)C(=O)N[C@@H](CO)C(=O)N[C@@H](CO)C(=O)N[C@@H](C(C)C)C(=O)N1)C(=O)N[C@H](C(=O)O)[C@@H](C)O | Acid-sensing ion channel 1 (ASIC1, Homo sapiens, UniProt P78348) | outside-out patch clamp | HEK-293T ASIC1a knockout | 100 nM, pH 6, wild type, 10-90% rise |  | rise time | 88 ± 26 ms
CC[C@H](CC[C@@H](C)[C@H]1CC[C@H]2[C@@H]3CC=C4C[C@@H](O[C@@H]5O[C@H](CO)[C@@H](O)[C@H](O)[C@H]5O)CC[C@]4(C)[C@H]3CC[C@]12C)C(C)C | Spike glycoprotein | binding, BLI |  |  |  | koff | 252 s⁻¹
Nc1ncnc2c([C@@H]3N[C@H](CO)[C@@H](O)[C@H]3O)c[nH]c12 | Severe acute respiratory syndrome coronavirus | viral replication, inhibitor | Vero 76 | 0.1 µM |  | inhibition | 9.6%
COc1cc(OCc2ccccn2)ccc1/C=C/c1cc(/C=C/c2ccc3cc[nH]c3c2)n[nH]1 | rep main protease | viral replication, Gluc reporter | SARS-CoV-2 | 20 µM |  | inhibition | -0.341%
Oc1cc(O)c2c(c1)O[C@H](c1cc(O)c(O)c(O)c1)[C@H](O)C2 | Spike glycoprotein | binding, BLI |  |  |  | koff | 0.00877 s⁻¹
CCc1cc(C(=O)N2CC[C@@H]([C@@H]3CCCN3C(=O)c3ccc4oc(N)nc4c3)C2)cc(=O)[nH]1 | rep main protease | enzyme activity, inhibitor |  | 5 µM |  | inhibition | 14%
Nc1cccc(-c2nsc(=O)o2)c1 | Proteasome subunit beta, open-gate 20S proteasome (prcB, Mycobacterium tuberculosis, UniProt P9WHT9) | enzyme activity, inhibitor |  |  |  | kinact/KI | 286 M⁻¹ s⁻¹
CCc1c(C(=O)C(N)=O)c2c(OCC(=O)O)cccc2n1Cc1ccccc1 | Daboia russelii venom phospholipase A2 | enzyme activity, inhibitor | TN population | 10 µM, added: NOB substrate | relative to: venom alone | remaining activity | 30% and 32% and 34%
COc1ccc(C[C@H](NC(=O)[C@H](C)NC(=O)CN2CCOCC2)C(=O)N[C@@H](Cc2ccccc2)C(=O)C2(C)CO2)cc1 (stereo in doubt) | rep main protease | reporter gene (mKate2), inhibitor |  | 20 µM |  | inhibition | -1.86%
O=c1c(O)c(-c2ccc(O)cc2O)oc2cc(O)cc(O)c12 | Spike glycoprotein | binding, BLI |  |  |  | koff | 0.0245 s⁻¹
Cc1nocc1C(=O)N1Cc2ccccc2[C@@H](CNC(=O)c2cncc3ccc(F)cc23)C1 | rep main protease | enzyme activity, inhibitor |  | 5 µM, mean of runs |  | inhibition | 13%
COC(=O)C[C@H](NC(=O)[C@H](C)NC(=O)[C@@H](NC(=O)OCc1ccccc1)C(C)C)C(=O)CF | rep main protease | reporter gene (Gaussia luciferase), inhibitor |  | 20 µM |  | inhibition | 4.43%

For quick reference, copied from above:
SMILES | tested on | assay | test system | conditions | how to read | endpoint | result
CC(C)(C)NCc1ccc(Nc2ccnc3cc(Cl)ccc23)cc1O | SARS-CoV-2 | cytopathic effect, cell-based CPE | USA_WA1/2020 | round 2, 5-point dilution |  | AC50 | 3.16 µM
O=C(N[C@@H]1Cc2ccccc2[C@H]1NC(=O)c1cc(O)ccc1[N+](=O)[O-])c1ccc2[nH]nnc2n1 | rep main protease | enzyme activity, inhibitor |  | 5 µM, mean of runs |  | inhibition | 10.3%
